Measured values collected from several papers.
Compare with care: the assays were run in different laboratories. Several values in a cell are separate wells, animals, samples, runs or records. ± gives the spread as reported.
inhA: Enoyl-[acyl-carrier-protein] reductase [NADH] (inhA, Mycobacterium tuberculosis, UniProt P9WGR1)
MAPK8: Mitogen-activated protein kinase 8 (MAPK8, Homo sapiens, UniProt P45983)
ACHE: Acetylcholinesterase (ACHE, Homo sapiens, UniProt P22303)
OPRM1: Mu-type opioid receptor (OPRM1, Homo sapiens, UniProt P35372)

Protein sequences, listed by entry. Tags and fused reporters are not part of them. Residues count along the entry.
UniProt P9WGR1, whole entry: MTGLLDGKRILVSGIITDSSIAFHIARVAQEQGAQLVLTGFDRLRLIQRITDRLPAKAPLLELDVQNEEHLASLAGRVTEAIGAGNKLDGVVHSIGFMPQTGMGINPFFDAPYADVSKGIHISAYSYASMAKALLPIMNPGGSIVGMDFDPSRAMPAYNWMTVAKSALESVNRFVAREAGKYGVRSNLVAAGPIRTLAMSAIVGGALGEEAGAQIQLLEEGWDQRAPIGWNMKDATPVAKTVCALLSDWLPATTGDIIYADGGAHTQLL
UniProt P45983, 1-384 isoform 3: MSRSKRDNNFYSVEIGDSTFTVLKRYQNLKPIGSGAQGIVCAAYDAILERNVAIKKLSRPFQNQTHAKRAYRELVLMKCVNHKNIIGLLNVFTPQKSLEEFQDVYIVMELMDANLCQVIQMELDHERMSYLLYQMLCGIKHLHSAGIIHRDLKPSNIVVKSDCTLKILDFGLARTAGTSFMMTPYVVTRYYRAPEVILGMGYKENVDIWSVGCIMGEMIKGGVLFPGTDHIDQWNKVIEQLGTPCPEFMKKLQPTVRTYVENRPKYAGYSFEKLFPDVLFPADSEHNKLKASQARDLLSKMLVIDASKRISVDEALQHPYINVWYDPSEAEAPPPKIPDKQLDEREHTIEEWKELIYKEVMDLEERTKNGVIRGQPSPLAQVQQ
UniProt P22303, whole entry, looked up: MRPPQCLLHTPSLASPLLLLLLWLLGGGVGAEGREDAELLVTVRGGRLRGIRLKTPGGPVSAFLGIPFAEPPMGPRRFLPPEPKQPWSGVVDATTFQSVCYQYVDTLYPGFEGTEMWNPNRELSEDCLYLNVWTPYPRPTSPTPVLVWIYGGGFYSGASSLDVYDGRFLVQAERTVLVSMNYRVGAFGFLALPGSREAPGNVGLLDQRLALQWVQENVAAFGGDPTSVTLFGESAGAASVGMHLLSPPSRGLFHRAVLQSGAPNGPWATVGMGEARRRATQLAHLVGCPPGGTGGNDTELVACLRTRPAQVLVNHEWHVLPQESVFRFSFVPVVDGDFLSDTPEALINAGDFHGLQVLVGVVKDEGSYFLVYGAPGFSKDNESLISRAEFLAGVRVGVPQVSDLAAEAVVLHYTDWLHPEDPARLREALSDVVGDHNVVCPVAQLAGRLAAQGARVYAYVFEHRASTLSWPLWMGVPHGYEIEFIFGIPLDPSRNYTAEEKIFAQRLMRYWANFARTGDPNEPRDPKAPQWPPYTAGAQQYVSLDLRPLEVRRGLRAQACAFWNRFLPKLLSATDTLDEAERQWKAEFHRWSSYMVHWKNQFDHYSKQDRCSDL
UniProt P35372, whole entry: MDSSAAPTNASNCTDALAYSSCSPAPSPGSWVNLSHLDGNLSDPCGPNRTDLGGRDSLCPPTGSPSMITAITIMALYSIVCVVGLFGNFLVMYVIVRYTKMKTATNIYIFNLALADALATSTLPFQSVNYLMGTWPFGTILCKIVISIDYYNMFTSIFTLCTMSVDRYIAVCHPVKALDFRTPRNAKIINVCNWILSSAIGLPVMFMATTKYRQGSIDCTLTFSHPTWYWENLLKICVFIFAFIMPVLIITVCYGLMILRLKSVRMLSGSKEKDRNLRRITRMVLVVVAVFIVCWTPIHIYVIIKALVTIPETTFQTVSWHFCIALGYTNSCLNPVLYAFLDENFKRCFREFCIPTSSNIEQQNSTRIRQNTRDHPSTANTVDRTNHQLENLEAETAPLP
UniProt P0C6Y4, 1686-1922 N1686S/I1722L/T1724W limits assumed: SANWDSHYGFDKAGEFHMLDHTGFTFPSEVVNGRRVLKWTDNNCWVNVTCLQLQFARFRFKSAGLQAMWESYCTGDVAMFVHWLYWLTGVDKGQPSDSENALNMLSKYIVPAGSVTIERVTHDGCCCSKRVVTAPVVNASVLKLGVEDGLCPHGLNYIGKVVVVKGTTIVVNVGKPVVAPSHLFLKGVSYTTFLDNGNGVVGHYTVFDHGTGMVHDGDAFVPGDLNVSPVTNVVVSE
UniProt Q9GZZ6, 25-450 limits assumed: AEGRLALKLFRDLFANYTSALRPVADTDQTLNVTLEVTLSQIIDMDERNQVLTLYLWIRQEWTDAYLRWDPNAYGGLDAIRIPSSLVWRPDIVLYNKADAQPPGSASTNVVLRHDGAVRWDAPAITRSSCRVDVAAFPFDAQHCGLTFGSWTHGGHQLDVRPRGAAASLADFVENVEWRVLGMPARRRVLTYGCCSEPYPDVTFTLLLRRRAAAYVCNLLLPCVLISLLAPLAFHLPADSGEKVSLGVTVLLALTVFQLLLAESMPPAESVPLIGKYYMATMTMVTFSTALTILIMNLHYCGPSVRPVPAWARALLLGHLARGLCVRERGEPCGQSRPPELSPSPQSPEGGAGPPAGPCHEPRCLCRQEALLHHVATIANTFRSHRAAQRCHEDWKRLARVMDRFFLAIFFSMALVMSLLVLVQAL
UniProt Q9UGM1, 26-479 limits assumed: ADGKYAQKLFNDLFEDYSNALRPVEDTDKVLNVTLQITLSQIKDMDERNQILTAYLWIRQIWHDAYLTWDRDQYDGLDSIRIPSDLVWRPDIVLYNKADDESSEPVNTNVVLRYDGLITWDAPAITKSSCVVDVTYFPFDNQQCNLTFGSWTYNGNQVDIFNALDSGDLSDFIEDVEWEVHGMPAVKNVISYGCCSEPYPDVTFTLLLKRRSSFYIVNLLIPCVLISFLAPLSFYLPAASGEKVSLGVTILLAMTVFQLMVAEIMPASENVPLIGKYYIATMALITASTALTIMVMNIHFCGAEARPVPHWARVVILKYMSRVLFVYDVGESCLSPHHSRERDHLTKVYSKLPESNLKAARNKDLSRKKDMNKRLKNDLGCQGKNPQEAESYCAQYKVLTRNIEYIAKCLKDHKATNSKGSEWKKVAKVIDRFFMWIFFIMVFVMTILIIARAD
UniProt O15393, whole entry S251D/R252D/Q253D/S254D/R255K, looked up: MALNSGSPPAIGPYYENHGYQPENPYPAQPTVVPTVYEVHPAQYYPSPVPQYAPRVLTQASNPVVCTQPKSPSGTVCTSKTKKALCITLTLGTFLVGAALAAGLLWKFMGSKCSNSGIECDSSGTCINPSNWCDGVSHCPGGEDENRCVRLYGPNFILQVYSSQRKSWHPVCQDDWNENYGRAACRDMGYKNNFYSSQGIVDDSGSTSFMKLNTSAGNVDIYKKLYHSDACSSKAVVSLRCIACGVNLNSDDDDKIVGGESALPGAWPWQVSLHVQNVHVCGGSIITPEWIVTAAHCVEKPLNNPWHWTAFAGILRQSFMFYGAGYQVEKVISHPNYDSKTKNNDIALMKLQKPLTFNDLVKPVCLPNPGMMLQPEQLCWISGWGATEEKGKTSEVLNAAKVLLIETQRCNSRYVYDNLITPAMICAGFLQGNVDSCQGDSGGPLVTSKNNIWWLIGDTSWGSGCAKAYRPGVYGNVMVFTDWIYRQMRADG
UniProt P9WFX1, whole entry: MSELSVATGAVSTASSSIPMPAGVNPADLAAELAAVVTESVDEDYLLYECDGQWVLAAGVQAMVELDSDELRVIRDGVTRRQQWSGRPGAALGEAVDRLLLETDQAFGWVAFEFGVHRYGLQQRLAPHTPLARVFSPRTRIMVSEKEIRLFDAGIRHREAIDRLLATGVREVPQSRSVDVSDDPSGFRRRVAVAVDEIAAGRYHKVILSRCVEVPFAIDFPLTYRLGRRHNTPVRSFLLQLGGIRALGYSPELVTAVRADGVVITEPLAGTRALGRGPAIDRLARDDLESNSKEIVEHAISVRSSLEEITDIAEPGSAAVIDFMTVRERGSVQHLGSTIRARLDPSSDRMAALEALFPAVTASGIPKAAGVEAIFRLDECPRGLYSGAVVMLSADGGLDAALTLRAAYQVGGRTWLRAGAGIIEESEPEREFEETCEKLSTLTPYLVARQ
UniProt O42275, whole entry, looked up: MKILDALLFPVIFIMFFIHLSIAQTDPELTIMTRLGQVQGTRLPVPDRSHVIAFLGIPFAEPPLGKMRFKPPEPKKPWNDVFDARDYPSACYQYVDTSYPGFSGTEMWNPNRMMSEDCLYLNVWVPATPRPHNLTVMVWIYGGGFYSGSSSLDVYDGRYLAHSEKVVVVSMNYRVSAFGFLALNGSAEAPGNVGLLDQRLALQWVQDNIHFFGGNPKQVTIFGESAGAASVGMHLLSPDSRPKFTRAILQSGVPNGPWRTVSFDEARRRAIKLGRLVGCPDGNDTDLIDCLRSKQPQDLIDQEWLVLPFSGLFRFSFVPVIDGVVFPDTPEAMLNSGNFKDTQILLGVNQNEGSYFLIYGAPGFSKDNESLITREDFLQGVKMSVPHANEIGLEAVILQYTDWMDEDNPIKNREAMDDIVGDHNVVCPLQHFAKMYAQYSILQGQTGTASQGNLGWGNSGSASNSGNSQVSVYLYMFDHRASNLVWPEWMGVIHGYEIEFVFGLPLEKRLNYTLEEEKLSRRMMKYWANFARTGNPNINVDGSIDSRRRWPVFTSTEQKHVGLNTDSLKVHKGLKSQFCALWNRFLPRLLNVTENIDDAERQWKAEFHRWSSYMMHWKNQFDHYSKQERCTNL
UniProt P11229, whole entry: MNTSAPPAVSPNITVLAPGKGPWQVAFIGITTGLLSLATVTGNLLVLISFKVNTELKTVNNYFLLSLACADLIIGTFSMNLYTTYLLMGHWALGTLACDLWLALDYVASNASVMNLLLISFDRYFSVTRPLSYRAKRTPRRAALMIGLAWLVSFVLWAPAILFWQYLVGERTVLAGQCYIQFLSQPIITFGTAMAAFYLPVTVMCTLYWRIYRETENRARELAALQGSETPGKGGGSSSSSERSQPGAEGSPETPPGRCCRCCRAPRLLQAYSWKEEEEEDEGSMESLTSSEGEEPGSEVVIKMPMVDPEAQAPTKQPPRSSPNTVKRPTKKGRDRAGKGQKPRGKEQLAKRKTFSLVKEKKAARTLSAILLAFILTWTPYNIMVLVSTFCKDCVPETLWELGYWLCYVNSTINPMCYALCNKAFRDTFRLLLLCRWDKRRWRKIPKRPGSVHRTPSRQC
UniProt P54578, whole entry: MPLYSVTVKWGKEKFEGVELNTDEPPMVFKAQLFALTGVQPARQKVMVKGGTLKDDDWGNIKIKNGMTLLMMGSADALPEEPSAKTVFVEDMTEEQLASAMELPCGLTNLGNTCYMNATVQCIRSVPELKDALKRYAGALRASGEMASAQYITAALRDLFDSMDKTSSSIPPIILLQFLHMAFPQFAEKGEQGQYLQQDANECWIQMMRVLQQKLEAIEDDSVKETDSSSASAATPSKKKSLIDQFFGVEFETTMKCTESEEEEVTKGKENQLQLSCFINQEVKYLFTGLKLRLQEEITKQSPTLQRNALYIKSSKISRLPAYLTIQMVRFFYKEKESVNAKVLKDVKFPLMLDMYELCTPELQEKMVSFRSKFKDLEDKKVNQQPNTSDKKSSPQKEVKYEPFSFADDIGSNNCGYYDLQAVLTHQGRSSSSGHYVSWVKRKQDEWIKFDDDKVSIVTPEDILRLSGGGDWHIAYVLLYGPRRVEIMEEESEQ
UniProt O33336, whole entry: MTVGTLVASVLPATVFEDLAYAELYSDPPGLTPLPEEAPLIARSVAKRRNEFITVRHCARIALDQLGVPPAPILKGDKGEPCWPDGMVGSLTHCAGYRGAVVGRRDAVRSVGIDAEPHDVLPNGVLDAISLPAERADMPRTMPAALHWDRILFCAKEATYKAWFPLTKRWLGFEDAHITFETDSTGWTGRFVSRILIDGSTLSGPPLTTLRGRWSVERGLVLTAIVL
UniProt Q9P0L9, whole entry F514A: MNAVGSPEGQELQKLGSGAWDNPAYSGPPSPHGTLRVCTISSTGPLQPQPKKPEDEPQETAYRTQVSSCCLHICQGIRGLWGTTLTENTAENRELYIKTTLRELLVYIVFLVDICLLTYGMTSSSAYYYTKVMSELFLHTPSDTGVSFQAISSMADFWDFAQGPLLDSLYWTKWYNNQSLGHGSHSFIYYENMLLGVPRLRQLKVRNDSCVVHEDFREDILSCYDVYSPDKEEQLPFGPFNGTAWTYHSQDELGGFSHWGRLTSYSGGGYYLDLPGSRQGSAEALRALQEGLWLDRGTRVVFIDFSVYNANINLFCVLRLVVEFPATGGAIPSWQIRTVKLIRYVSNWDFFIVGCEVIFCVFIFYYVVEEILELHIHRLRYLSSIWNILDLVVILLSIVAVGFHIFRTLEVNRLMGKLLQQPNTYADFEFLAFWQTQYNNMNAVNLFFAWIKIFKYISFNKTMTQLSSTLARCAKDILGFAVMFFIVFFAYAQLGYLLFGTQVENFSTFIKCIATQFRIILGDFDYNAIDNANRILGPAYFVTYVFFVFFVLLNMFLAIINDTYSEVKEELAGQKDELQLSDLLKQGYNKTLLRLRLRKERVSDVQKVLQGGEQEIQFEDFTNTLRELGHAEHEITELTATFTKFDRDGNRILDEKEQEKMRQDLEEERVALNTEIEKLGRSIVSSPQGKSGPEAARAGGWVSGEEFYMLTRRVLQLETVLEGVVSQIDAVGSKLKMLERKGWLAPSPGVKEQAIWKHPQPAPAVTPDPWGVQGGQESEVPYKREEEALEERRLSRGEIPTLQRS
UniProt P06730, whole entry: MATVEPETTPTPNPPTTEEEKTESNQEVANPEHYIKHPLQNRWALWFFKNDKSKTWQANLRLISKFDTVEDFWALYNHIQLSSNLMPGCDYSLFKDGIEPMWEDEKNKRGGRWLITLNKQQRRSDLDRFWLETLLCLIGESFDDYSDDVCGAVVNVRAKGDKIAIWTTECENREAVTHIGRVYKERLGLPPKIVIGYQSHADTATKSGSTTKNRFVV

SMILES | target or system | test | test system | conditions | how to read | quantity | value
C#CCOCCC(=O)N[C@H](Cc1ccccc1)C(=O)N[C@@H](Cc1ccccc1)C(=O)N[C@@H](CCCNC(N)=O)C(=O)CCl | Replicase polyprotein 1ab, main protease (rep, Severe acute respiratory syndrome coronavirus 2, UniProt P0DTD1) | enzyme activity, inhibitor |  |  | relative to: PLpro IC50 over target IC50 | selectivity ratio | > 275 fold
CC(C)[C@H](NC(=O)[C@H](CC(=O)O)NC(=O)CNC(=O)CNC(=O)CNC(=O)[C@H](CCCCN)NC(=O)[C@H](CCCCN)NC(=O)[C@H](CCCCN)NC(=O)[C@H](Cc1ccccc1)NC(=O)c1ccc(N=Nc2ccc(N(C)C)cc2)cc1)C(=O)N[C@@H](CCCCN)C(=O)N[C@@H](CCC(=O)O)C(=O)NCCNc1cccc2c(S(=O)(=O)O)cccc12 | Replicase polyprotein 1ab, papain-like protease 2 (rep, Porcine epidemic diarrhea virus, UniProt P0C6Y4, I1722L/N1686S/T1724W) | substrate |  |  |  | Km | 39.6 ± 15.6 µM
C[C@@H]1NC(=O)[C@H](CCCNC(=N)N)NC(=O)[C@H](CCCNC(=N)N)NC(=O)[C@@H]2CCCN2C(=O)[C@H](CO)NC(=O)[C@@H]2CSSC[C@H](NC(=O)CN)C(=O)N[C@@H](CSSC[C@@H](C(N)=O)NC(=O)[C@H](CO)NC(=O)[C@H](CCCNC(=N)N)NC1=O)C(=O)N[C@@H](CO)C(=O)N[C@@H](Cc1c[nH]cn1)C(=O)N1CCC[C@H]1C(=O)N[C@@H](C)C(=O)N2 | Neuronal acetylcholine receptor; alpha9/alpha10 (Homo sapiens, UniProt Q9GZZ6+Q9UGM1) | ion current, antagonist | Xenopus oocytes | 10 µM, 5 min, with: acetylcholine | relative to: control | remaining response | 10 ± 8%
Oc1cccc2c1OC1CCCC3CN(CC4CC4)CCC231 (single isomer, unassigned) | Kappa-type opioid receptor (OPRK1, Homo sapiens, UniProt P41145) | partial agonist |  |  |  | Emax | 23 ± 1%
[N-]=[N+]=NCC=O | Aldehyde dehydrogenase, mitochondrial (ALDH2, Homo sapiens, UniProt P05091) | substrate, NAD+ to NADH conversion |  |  |  | Km | 80 µM
CC(C)(C)O[C@@H]1C[C@@H](C(=O)N[C@H](Cc2ccccc2)C(=O)C(=O)NCc2ccc(Cl)cn2)N(C(=O)[C@@H](NC(=O)C2CCC(F)(F)CC2)C2CCCCC2)C1 | Transmembrane protease serine 2 (TMPRSS2, Homo sapiens, UniProt O15393, Q253D/R252D/R255K/S251D/S254D) | enzyme activity, inhibitor |  | 500 µM |  | inhibition | -8.18% and -1.12% and -2.17%
NCCNCCSc1ccccc1 |  |  | mouse blood | 100 µg/mL, 30 min, 37 °C |  | blood concentration | 54.9 ± 0.88 µg/mL
NC[C@@H](NC[C@@H]1CCCN1C[C@@H](CO)NC[C@@H](NCCC1CC2CCC1C2)c1ccccc1)c1ccccc1 (stereo partly shown) | Klebsiella pneumoniae | bacterial growth |  | compound alone |  | IC90 | > 24 µM
O=C(NC1CCN(c2ncnc3[nH]cnc23)CC1)c1cccc(S(=O)(=O)Nc2ccc(Cl)cc2)c1 | A549-ACE2 |  |  | 0.2743 µM |  | viability | 108%
Oc1cc(Cn2cc(C3CC3)nn2)ccc1Oc1ccccc1Cl | inhA | conformational change, second-harmonic generation |  | 10 µM, 30 min, His-tagged protein |  | SHG intensity increase | 19.7 ± 0.6%
COC(=O)[C@@H]1C=C(OC(=O)c2cccc(O)c2)C(=O)[C@H]2[C@@]1(C)CC[C@H]1C(=O)O[C@H](c3ccoc3)C[C@]21C | Mu-type opioid receptor, with beta-arrestin-2 (OPRM1, Homo sapiens, UniProt P35372) | β-arrestin-2 vs cAMP, agonist |  |  | relative to: DAMGO, higher = β-arrestin-2 bias | bias factor | 1.98
COC(=O)[C@@]1(C)C=C(C(=O)Nc2ccc(C)c(C(=O)Nc3ccc(Nc4nccc(-c5cccnc5)n4)cc3)c2)C(=O)CC1 | MAPK8 | kinase activity, inhibitor |  | 0.02032 µM, unit not given, with: 10 mM GSH | relative to: DMSO | remaining activity | 0.366
CCN(CC)Cc1cc(N)ccc1O | ACHE | enzyme activity, noncompetitive inhibitor |  | with: acetylthiocholine |  | Ki' | 37.4 ± 2.1 µM
N#Cc1ccccc1Oc1ccc(Cn2cc(C3CCCC3)nn2)cc1O | inhA | enzyme inhibition, inhibitor, progress curve analysis |  | 20 °C |  | residence time | 106 ± 21 min
NC[C@@H](NC[C@@H]1CCCN1C[C@@H](CO)NC[C@@H](NCCc1ccc(Cl)c(Cl)c1)c1ccccc1)c1ccccc1 | Escherichia coli | bacterial growth |  | compound alone |  | IC90 | 15.2 µM
O=C(O)c1ccc(-c2ccc([N+](=O)[O-])cc2Cl)o1 | mbtI (Mycobacterium tuberculosis, UniProt P9WFX1) | enzyme activity |  | 100 µM, pH 7.5 |  | remaining activity | 11.3 ± 4.2%
O=C(NC1CCN(c2ncnc3[nH]cnc23)CC1)c1cccc(NS(=O)(=O)c2ccc(Cl)cc2)c1 | A549-ACE2 |  |  | 7.407 µM |  | viability | 93.8%

SMILES | target or system | test | test system | conditions | how to read | quantity | value
CSCC[C@H](NC(=O)[C@H](Cc1ccccc1)NC(=O)CNC(=O)CNC(=O)[C@@H](N)Cc1ccc(O)cc1)C(=O)O | neuron-specific aminopeptidase, rat | substrate |  | MW 110 kDa |  | kcat | 7.8 s⁻¹
C=CC(=O)Nc1cc(-n2c(=O)ccc3cnc4ccc(-c5cn[nH]c5)cc4c32)ccc1C | DU-145 | cell growth |  | 72 h |  | GI50 | > 10 µM
O=C(C1CCN(Cc2cccc3ccccc23)CC1)N1CCc2ccccc2C1 | Acetylcholinesterase (ache, Electrophorus electricus, UniProt O42275) | enzyme activity, inhibitor, Ellman |  | 175 µM, with: acetylthiocholine iodide |  | Vmax | 0.088 absorbance units/min
COc1ccc(CN[C@@H]2CO[C@H](C(c3ccccc3)c3ccccc3)C[C@H]2O)cc1 | Muscarinic acetylcholine receptor M1 (CHRM1, Homo sapiens, UniProt P11229) | radioligand binding |  | 10 µM, with: [3H]QNB |  | inhibition | -1.7%
CN1CC[C@]23c4c5ccc(O)c4O[C@H]2c2ncc(-c4ccc(Cl)cc4)cc2C[C@@]3(OCCCc2ccccc2)[C@H]1C5 | OPRM1 | β-arrestin-2 recruitment, agonist, PathHunter |  |  | relative to: DAMGO | potency relative to DAMGO | ≤ 2 fold
ON=C1c2nonc2C(=NO)c2nonc21 | Ubiquitin carboxyl-terminal hydrolase 14 (USP14, Homo sapiens, UniProt P54578) | inhibitor |  | 17 µM, 26S proteasome-bound |  | inhibition | 91%
COC(=O)[C@@]1(C)C=C(C(=O)Nc2cc(C(=O)Nc3ccc(Nc4nccc(-c5cccnc5)n4)cc3)ccc2C)C(=O)CC1 | MAPK8 | kinase activity, inhibitor |  | 0.0007527 µM, unit not given, with: 10 mM GSH | relative to: DMSO | remaining activity | 1.01
O=c1c2ccccc2[nH]c(=S)n1Cc1cccnc1 | 4'-phosphopantetheinyl transferase PptT (Mycobacterium tuberculosis, UniProt O33336) | enzyme activity, fluorescence polarization |  | 10 µM |  | inhibition | 98.5%
N#Cc1ccccc1Oc1ccc(Cn2cc(C3CCCCC3)nn2)cc1O | inhA | enzyme inhibition, inhibitor, progress curve analysis |  | 20 °C |  | residence time | 119 ± 23 min
CN(C(=O)Cc1ccc(Cl)c(Cl)c1)C1CCCCC1N1CCCC1 (stereo not shown) | PKD2L1 (Homo sapiens, UniProt Q9P0L9, F514A) | ion current, screen |  | 1 µM, mutant F514A | relative to: vehicle | tail current | inhibited
CC(C)(C)c1cc[n+](COC[n+]2ccc(C(C)(C)C)cc2)cc1 | ACHE |  |  |  | relative to: BChE IC50 over AChE IC50 | selectivity ratio | 6.2
Cc1ccccc1Oc1ccc(Cn2cc(C3CC3)nn2)cc1O | inhA |  |  | 20 °C, EI* to EI |  | reverse isomerization rate k6 | 0.005 ± 0.002 min⁻¹
COC(=O)[C@@H]1C=C(OC(=O)c2ccc(CO)cc2)C(=O)[C@H]2[C@@]1(C)CC[C@H]1C(=O)O[C@H](c3ccoc3)C[C@]21C | OPRM1 | G-protein signalling, agonist |  |  |  | ligand efficiency | 0.38
C[C@H](CS)C(=O)N[C@@H](Cc1c[nH]c2ccccc12)C(=O)O | Enterobacter aerogenes |  | IMP-1 producing | 25 µM, with: meropenem |  | MIC of meropenem | 16 µg/mL
Cc1ccc(-c2csc(NP(=O)(O)OCC3OC(n4c[n+](Cc5ccccc5)c5c(=O)[nH]c(NC(=O)c6ccccc6)nc54)C4OC(C)(C)OC34)n2)cc1 (stereo not shown) | Eukaryotic translation initiation factor 4E, phosphorylated (EIF4E, Homo sapiens, UniProt P06730) | refers to: EIF4E | MCF7 | concentration not given | relative to: untreated | fold change | 0.74
N#Cc1ccccc1Oc1ccc(Cn2cc(C3CC3)nn2)cc1O | inhA |  |  | 20 °C, EI* to EI |  | reverse isomerization rate k6 | 0.0052 ± 0.0002 min⁻¹
CC(C)[C@H](NC(=O)[C@@H]1CCCN1C(=O)[C@H](C)NC(=O)[C@H](CO)NC(=O)[C@H](C)NC(=O)[C@H](CC(N)=O)NC(=O)[C@H](CCC(=O)O)NC(=O)[C@@H](NC(=O)[C@H](CC(=O)O)NC(=O)[C@H](CCCCN)NC(=O)[C@H](C)NC(=O)[C@H](CCC(N)=O)NC(=O)[C@H](Cc1ccccc1)NC(=O)[C@H](C)NC(=O)[C@H](Cc1c[nH]c2ccccc12)NC(=O)[C@H](C)NC(=O)[C@@H](NC(=O)CN)C(C)C)C(C)C)C(=O)O | Peptide cyclase 1 (Gypsophila vaccaria, UniProt R4P353, S562A) | binding, isothermal titration calorimetry |  | pH 8.0, 25 °C |  | ΔG | -9.04 kcal/mol

Excerpt of the above:
SMILES | target or system | test | test system | conditions | how to read | quantity | value
CC(C)(C)c1cc[n+](COC[n+]2ccc(C(C)(C)C)cc2)cc1 | ACHE |  |  |  | relative to: BChE IC50 over AChE IC50 | selectivity ratio | 6.2
CC(C)[C@H](NC(=O)[C@H](CC(=O)O)NC(=O)CNC(=O)CNC(=O)CNC(=O)[C@H](CCCCN)NC(=O)[C@H](CCCCN)NC(=O)[C@H](CCCCN)NC(=O)[C@H](Cc1ccccc1)NC(=O)c1ccc(N=Nc2ccc(N(C)C)cc2)cc1)C(=O)N[C@@H](CCCCN)C(=O)N[C@@H](CCC(=O)O)C(=O)NCCNc1cccc2c(S(=O)(=O)O)cccc12 | Replicase polyprotein 1ab, papain-like protease 2 (rep, Porcine epidemic diarrhea virus, UniProt P0C6Y4, I1722L/N1686S/T1724W) | substrate |  |  |  | Km | 39.6 ± 15.6 µM
NC[C@@H](NC[C@@H]1CCCN1C[C@@H](CO)NC[C@@H](NCCc1ccc(Cl)c(Cl)c1)c1ccccc1)c1ccccc1 | Escherichia coli | bacterial growth |  | compound alone |  | IC90 | 15.2 µM
Oc1cc(Cn2cc(C3CC3)nn2)ccc1Oc1ccccc1Cl | inhA | conformational change, second-harmonic generation |  | 10 µM, 30 min, His-tagged protein |  | SHG intensity increase | 19.7 ± 0.6%
